Experimental data pooled from the literature.
A part holds a random share of what one study measured. “And” joins repeats or separate records; there may be more than shown.
Chain of UniProt P00519 (whole entry, unmodified, looked up): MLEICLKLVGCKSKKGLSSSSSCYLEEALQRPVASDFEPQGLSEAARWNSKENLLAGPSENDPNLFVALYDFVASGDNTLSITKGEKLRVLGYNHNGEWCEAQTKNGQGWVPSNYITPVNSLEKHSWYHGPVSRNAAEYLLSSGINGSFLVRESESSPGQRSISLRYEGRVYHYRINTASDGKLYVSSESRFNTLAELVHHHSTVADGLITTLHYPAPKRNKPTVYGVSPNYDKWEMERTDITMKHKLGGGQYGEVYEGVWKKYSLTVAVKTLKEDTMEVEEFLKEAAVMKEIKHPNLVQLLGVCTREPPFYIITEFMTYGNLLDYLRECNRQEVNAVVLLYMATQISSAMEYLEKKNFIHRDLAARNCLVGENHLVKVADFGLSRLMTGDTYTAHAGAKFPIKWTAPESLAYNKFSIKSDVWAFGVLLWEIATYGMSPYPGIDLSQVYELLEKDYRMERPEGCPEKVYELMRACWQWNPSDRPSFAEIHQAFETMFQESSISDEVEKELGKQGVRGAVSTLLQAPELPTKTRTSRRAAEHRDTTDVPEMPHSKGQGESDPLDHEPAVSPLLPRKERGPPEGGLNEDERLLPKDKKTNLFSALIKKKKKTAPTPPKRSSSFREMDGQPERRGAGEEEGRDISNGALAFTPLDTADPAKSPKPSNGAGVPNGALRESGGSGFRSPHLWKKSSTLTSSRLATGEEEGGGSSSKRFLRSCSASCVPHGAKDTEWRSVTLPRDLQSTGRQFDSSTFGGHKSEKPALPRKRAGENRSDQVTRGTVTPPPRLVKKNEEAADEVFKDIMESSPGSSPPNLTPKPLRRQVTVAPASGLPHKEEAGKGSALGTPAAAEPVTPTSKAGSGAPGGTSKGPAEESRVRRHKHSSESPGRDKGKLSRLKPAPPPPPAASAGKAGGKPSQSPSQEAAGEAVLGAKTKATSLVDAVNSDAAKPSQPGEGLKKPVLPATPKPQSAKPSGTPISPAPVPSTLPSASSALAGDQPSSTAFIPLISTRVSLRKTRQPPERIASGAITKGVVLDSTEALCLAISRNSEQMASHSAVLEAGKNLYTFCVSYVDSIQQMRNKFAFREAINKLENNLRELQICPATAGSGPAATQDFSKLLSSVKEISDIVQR
Chain of UniProt Q9P1W9 (whole entry, looked up): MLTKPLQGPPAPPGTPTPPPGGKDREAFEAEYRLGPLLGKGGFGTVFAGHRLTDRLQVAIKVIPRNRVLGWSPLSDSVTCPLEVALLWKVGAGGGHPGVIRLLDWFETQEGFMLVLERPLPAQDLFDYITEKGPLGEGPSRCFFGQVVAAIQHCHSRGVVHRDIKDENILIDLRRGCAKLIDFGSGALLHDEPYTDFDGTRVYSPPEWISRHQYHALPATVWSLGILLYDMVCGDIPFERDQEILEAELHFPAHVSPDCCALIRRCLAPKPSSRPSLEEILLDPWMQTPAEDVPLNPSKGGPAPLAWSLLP
Chain of UniProt Q96PN8 (whole entry, looked up): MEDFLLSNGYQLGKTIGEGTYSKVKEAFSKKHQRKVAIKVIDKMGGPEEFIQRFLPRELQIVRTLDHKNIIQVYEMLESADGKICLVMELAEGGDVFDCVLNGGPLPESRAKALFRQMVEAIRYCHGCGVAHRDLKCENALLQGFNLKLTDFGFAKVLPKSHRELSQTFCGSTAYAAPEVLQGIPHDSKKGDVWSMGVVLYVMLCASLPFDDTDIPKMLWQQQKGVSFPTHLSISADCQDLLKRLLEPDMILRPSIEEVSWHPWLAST
Chain of UniProt P54760 (whole entry, looked up): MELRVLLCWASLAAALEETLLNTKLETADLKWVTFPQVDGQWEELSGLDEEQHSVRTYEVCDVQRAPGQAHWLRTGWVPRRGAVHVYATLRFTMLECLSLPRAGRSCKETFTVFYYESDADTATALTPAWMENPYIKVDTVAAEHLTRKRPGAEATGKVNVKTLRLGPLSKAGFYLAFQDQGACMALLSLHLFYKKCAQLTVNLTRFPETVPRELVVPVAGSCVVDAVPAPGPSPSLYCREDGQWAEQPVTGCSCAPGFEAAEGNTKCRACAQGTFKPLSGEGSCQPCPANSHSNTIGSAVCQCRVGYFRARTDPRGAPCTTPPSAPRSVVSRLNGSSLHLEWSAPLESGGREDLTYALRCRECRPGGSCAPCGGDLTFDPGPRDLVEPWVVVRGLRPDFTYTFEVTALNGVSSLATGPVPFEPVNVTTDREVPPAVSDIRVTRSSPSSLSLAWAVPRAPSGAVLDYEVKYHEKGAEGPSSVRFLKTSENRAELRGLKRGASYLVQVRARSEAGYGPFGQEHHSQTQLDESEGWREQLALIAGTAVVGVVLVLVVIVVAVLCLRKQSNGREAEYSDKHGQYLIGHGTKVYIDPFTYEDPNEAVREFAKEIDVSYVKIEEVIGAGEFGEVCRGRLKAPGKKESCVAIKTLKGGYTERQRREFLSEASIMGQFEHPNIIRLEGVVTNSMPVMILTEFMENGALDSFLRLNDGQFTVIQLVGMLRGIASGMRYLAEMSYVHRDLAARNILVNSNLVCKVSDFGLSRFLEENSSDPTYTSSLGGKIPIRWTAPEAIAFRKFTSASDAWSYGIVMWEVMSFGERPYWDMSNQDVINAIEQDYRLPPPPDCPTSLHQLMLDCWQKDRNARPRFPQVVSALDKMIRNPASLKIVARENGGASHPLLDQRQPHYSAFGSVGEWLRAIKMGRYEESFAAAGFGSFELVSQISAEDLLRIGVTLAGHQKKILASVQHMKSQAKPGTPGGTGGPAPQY
Chain of UniProt Q9NRP7 (whole entry, looked up): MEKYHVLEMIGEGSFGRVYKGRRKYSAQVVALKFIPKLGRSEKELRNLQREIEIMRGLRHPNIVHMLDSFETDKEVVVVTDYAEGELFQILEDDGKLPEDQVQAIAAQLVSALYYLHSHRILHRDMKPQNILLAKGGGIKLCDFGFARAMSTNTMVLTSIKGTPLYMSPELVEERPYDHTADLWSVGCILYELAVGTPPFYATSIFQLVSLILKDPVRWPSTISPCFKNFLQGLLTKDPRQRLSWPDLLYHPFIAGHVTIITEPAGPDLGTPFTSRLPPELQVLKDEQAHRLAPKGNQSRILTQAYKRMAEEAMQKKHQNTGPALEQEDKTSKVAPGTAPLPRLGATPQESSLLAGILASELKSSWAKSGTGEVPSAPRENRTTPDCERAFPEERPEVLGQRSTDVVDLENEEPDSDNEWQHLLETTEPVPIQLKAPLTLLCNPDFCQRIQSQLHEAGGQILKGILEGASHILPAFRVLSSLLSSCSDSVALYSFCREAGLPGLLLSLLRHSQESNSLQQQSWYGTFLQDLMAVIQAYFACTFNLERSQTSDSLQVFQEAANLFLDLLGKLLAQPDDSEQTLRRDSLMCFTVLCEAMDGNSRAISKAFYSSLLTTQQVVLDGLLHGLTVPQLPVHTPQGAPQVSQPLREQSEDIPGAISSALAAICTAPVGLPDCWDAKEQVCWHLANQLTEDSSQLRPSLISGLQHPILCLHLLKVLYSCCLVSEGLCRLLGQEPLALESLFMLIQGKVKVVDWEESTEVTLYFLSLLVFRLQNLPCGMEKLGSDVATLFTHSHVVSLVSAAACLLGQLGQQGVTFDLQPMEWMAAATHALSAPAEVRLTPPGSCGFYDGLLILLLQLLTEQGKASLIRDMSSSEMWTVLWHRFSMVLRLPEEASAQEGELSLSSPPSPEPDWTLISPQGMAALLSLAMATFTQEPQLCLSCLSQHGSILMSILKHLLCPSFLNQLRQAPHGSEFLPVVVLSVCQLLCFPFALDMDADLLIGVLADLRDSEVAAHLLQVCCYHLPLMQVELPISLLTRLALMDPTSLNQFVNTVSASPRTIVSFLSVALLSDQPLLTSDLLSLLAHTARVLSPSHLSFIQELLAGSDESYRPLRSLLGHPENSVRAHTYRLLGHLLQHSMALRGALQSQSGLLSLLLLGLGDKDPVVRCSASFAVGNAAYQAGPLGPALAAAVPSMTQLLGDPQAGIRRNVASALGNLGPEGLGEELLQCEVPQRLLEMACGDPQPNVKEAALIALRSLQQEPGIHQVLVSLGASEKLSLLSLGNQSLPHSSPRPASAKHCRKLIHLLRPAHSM
Chain of UniProt P45983 (whole entry, looked up): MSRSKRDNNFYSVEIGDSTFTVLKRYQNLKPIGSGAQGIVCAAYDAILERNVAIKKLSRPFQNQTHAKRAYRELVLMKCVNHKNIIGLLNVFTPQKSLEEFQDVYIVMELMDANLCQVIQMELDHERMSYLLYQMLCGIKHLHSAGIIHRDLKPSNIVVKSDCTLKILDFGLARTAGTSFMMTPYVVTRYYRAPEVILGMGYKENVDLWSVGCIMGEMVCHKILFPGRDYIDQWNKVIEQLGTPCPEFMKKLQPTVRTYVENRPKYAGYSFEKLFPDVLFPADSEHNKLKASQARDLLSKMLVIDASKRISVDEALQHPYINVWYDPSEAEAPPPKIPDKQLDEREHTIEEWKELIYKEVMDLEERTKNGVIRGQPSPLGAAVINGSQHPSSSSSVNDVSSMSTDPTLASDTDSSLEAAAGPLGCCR

Sample 1 — method: competition with immobilised ligand; tested at: 1 µM
Structure (SMILES): Cc1c(C(=O)O)cc(-c2ccc(C3CCNCC3)cc2)c2ccc(-c3ccc(C(F)(F)F)cc3)cc12
target | effect on | remaining binding [%]
eIF-2-alpha kinase GCN2, C-terminal kinase domain (EIF2AK4, Homo sapiens, UniProt Q9P2K8, S808G) | binding | 100
Tyrosine-protein kinase ABL1, non-phosphorylated (ABL1, Homo sapiens, UniProt P00519, F317L) | binding | 100
Serine/threonine-protein kinase 35 (STK35, Homo sapiens, UniProt Q8TDR2) | binding | 100
Testis-specific serine/threonine-protein kinase 3 (TSSK3, Homo sapiens, UniProt Q96PN8) | binding | 93
Serine/threonine-protein kinase 36 (STK36, Homo sapiens, UniProt Q9NRP7) | binding | 86
Serine/threonine-protein kinase Nek5 (NEK5, Homo sapiens, UniProt Q6P3R8) | binding | 100
Myotonin-protein kinase (DMPK, Homo sapiens, UniProt Q09013) | binding | 86
Serine/threonine-protein kinase mTOR (MTOR, Homo sapiens, UniProt P42345) | cell-free assay | 96
Ephrin type-B receptor 4 (EPHB4, Homo sapiens, UniProt P54760) | cell-free assay | 100
Phosphatidylinositol 4,5-bisphosphate 3-kinase catalytic subunit alpha isoform (PIK3CA, Homo sapiens, UniProt P42336) | cell-free assay | 100
Cyclin-dependent kinase 17 (CDK17, Homo sapiens, UniProt Q00537) | binding | 100
Tyrosine-protein kinase JAK2, JH1 (JAK2, Homo sapiens, UniProt O60674) | binding | 100
Mitogen-activated protein kinase kinase kinase 3 (MAP3K3, Homo sapiens, UniProt Q99759) | binding | 98
Serine/threonine-protein kinase pim-2 (PIM2, Homo sapiens, UniProt Q9P1W9) | binding | 100
MAP kinase-interacting serine/threonine-protein kinase 1 (MKNK1, Homo sapiens, UniProt Q9BUB5) | binding | 100
Tyrosine-protein kinase ABL1, phosphorylated (ABL1, Homo sapiens, UniProt P00519, E255K) | binding | 96
Proto-oncogene tyrosine-protein kinase receptor Ret (RET, Homo sapiens, UniProt P07949, V804L) | cell-free assay | 100
Atypical kinase COQ8B, mitochondrial (COQ8B, Homo sapiens, UniProt Q96D53) | cell-free assay | 100
Serine/threonine-protein kinase PAK 6 (PAK6, Homo sapiens, UniProt Q9NQU5) | cell-free assay | 100
Ribosomal protein S6 kinase alpha-5, N-terminal kinase domain (RPS6KA5, Homo sapiens, UniProt O75582) | binding | 100
Mitogen-activated protein kinase 8 (MAPK8, Homo sapiens, UniProt P45983) | binding | 100
Epidermal growth factor receptor (EGFR, Homo sapiens, UniProt P00533) | cell-free assay | 100
Serine/threonine-protein kinase PAK 3 (PAK3, Homo sapiens, UniProt O75914) | cell-free assay | 100
Ephrin type-A receptor 6 (EPHA6, Homo sapiens, UniProt Q9UF33) | cell-free assay | 100
Receptor-type tyrosine-protein kinase FLT3 (FLT3, Homo sapiens, UniProt P36888, D835V/ITD) | binding | 95

Sample 2 — tested at: 1 µM
SMILES: CC(C)S(=O)(=O)c1ccc2nccc(Nc3ccc4sc(C5CCCC5)nc4c3)c2c1.Cl
target | effect on | mode | remaining activity
Phosphorylase b kinase gamma catalytic chain, liver/testis isoform (PHKG2, Homo sapiens, UniProt P15735) | kinase activity | inhibitor | 91%
Serine/threonine-protein kinase SIK3 (SIK3, Homo sapiens, UniProt Q9Y2K2) | kinase activity | inhibitor | 102%
Myosin-IIIb (MYO3B, Homo sapiens, UniProt Q8WXR4) | kinase activity | inhibitor | 98%
Vascular endothelial growth factor receptor 3 (FLT4, Homo sapiens, UniProt P35916) | kinase activity | inhibitor | 81%
Eukaryotic translation initiation factor 2-alpha kinase 3 (EIF2AK3, Homo sapiens, UniProt Q9NZJ5) | kinase activity | inhibitor | 103%
Ephrin type-B receptor 4 (EPHB4, Homo sapiens, UniProt P54760) | kinase activity | inhibitor | 110%
MLCK(h) (human) |  |  | 94% and 96%
Serine/threonine-protein kinase ULK1 (ULK1, Homo sapiens, UniProt O75385) | kinase activity | inhibitor | 94%
BDNF/NT-3 growth factors receptor (NTRK2, Homo sapiens, UniProt Q16620) | kinase activity | inhibitor | 98%
Mitogen-activated protein kinase kinase kinase 9 (MAP3K9, Homo sapiens, UniProt P80192) | kinase activity | inhibitor | 96%
Cyclin-dependent kinase 18 (CDK18, Homo sapiens, UniProt Q07002) | kinase activity | inhibitor | 102%
Serine/threonine-protein kinase 24 (STK24, Homo sapiens, UniProt Q9Y6E0) | kinase activity | inhibitor | 118%
Mitogen-activated protein kinase 9 (MAPK9, Homo sapiens, UniProt P45984) | kinase activity | inhibitor | 89%
Serine/threonine-protein kinase pim-2 (PIM2, Homo sapiens, UniProt Q9P1W9) | kinase activity | inhibitor | 95%
ALK tyrosine kinase receptor (ALK, Homo sapiens, UniProt Q9UM73) | kinase activity | inhibitor | 83%
Testis-specific serine/threonine-protein kinase 3 (TSSK3, Homo sapiens, UniProt Q96PN8) | kinase activity | inhibitor | 103%

Sample 3 — effect on: enzyme activity; mode: inhibitor; tested at: 10 µM
Target: Calcium/calmodulin-dependent protein kinase type II subunit alpha (CAMK2A, Homo sapiens, UniProt Q9UQM7)
Chain of UniProt Q9UQM7 (whole entry, looked up): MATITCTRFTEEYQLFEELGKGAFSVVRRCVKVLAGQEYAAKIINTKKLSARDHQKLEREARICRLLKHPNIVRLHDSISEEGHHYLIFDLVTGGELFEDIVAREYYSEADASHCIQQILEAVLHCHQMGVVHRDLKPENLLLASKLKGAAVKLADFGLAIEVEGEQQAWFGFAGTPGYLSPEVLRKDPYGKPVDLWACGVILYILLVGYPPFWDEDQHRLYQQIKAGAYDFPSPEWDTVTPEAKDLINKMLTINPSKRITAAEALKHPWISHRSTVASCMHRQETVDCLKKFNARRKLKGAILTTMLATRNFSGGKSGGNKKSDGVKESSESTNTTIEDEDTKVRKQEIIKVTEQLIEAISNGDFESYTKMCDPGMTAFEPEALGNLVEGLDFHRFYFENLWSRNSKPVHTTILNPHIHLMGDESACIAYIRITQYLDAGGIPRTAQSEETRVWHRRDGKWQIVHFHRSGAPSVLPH
SMILES | inhibition
O=c1[nH]c2ccccc2n1CCN1CCN(c2cccc(C(F)(F)F)c2)CC1 | 0%
Oc1ccc([C@H]2Oc3cc(O)cc(O)c3C[C@@H]2O)cc1 | -26%
COc1cc(O)c2c(=O)cc(-c3ccc(O)c(O)c3)oc2c1 | -44%
CC(=O)Oc1ccc(C(c2ccc(OC(C)=O)cc2)c2ccccn2)cc1 | -15%
CC1(C)CC[C@]2(C(=O)O)CC[C@]3(C)C(=CC[C@@H]4[C@@]5(C)CC[C@H](O)C(C)(C)[C@@H]5CC[C@]43C)[C@@H]2C1 | 13%
COc1cc(/C=C/C(=O)OC[C@H]2O[C@H](O[C@]3(CO)O[C@H](CO)[C@@H](O)[C@@H]3OC(=O)/C=C/c3cc(OC)c(OC)c(OC)c3)[C@H](O)[C@@H](O)[C@@H]2O)cc(OC)c1O | -110%
COc1ccc(C(C)=O)cc1O | 8%
COC(=O)C1=CO[C@@H](O[C@@H]2O[C@H](CO)[C@@H](O)[C@H](O)[C@H]2O)[C@@H]2C(CO)=C[C@H](O)[C@H]12 | -24%
COc1c(C)c2c(c(O)c1C/C=C(\C)CCC(=O)OCCN1CCOCC1)C(=O)OC2 | -20%
CCOC(=O)c1c(C)cc(O)cc1O | -8%
COc1ccc(/C=C/c2cc(OC)cc(=O)o2)cc1 | 2%
O=C(Oc1ccccc1C(=O)O)c1ccccc1O | -8%
CN(C(=O)C(Cl)Cl)c1ccc(OC(=O)c2ccco2)cc1 | -8%
C[C@]12CC[C@H](O)CC1=CC[C@@H]1[C@@H]2CC[C@]2(C)C(c3cccnc3)=CC[C@@H]12 | -8%

Sample 4 — mode: inhibitor; tested at: 10 µM; relative to: control
Target: Diamine acetyltransferase 1 (Homo sapiens, UniProt P21673)
Residues (P21673 1-171): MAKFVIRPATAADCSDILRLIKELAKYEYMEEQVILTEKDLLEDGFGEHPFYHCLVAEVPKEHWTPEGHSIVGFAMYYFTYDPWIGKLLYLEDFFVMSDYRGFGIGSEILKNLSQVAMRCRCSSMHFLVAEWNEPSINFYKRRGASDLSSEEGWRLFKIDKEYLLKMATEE
Compound | remaining activity
OCC1=C[C@@H](O)[C@@H]2C=CO[C@@H](O[C@@H]3O[C@H](CO)[C@@H](O)[C@H](O)[C@H]3O)[C@H]12 | 94.7%
CC(C)=CCc1c(O)ccc(C(=O)[C@@H]2[C@@H](c3c(O)cc(O)c4c(=O)c(CC=C(C)C)c(-c5ccc(O)cc5O)oc34)C=C(C)C[C@H]2c2ccc(O)cc2O)c1O | 104%
CC1=C(/C=C/C(C)=C/C=C/C(C)=C/C=C/C=C(C)/C=C/C=C(C)/C=C/C2=C(C)CCCC2(C)C)C(C)(C)CCC1 | 87%
COc1cc(CCC(C)=O)ccc1O | 90.9%
COc1cc(C(=O)O)ccc1O | 98.4%
CC(C)(O)[C@H]1CC[C@@](C)([C@H]2[C@@H](O)C[C@@]3(C)[C@@H]4C[C@H](O)[C@H]5C(C)(C)[C@@H](O)CC[C@@]56C[C@@]46CC[C@]23C)O1 | 91.9%
O=C(O)c1cc(O)ccc1O | 91%
O=c1cc(-c2ccc(O)cc2)oc2c([C@@H]3O[C@H](CO)[C@@H](O[C@@H]4O[C@H](CO)[C@@H](O)[C@H](O)[C@H]4O)[C@H](O)[C@H]3O)c(O)cc(O)c12 | 106%
COc1ccc(-c2coc3cc(O)cc(O)c3c2=O)cc1 | 78.8%
O=C(O)CCc1ccccc1O | 96.6%
COc1cc2c(=O)c(-c3ccc(O)cc3)coc2cc1O | 85.3%
O=C(/C=C/c1ccc(O[C@@H]2O[C@H](CO)[C@@H](O)[C@H](O)[C@H]2O[C@@H]2OC[C@](O)(CO)[C@H]2O)cc1)c1ccc(O)cc1O | 81.6%
COc1ccc2[nH]c(=O)oc2c1 | 102%
